# Experimental data from different studies.
# Parts stem from different laboratories: compare values within a part only.

# Block 1 — technique: RNA Bind-n-Seq; form: RNA; sample: in vitro; tested at: not given; reference: input RNA pool; reading: higher = stronger binding
# Target: RING finger protein unkempt homolog, zinc fingers 1-6, GST-SBP tag (UNK, Homo sapiens, UniProt Q9C0B0, residues 30-357)
# UniProt Q9C0B0, sequence (30-357, looked up): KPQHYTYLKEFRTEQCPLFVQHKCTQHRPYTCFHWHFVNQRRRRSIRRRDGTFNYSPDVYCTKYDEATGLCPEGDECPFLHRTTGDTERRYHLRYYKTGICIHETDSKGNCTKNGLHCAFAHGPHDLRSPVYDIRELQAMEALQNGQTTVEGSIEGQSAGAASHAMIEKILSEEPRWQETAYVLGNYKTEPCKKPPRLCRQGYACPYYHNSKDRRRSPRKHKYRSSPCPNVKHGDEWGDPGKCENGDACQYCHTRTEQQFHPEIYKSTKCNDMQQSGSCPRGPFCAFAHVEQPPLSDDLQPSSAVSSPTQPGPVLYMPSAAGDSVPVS
# Setting: RNA with constant flanks, human-mouse chimeric sites, ends assumed
# Constant ends, left off below: GGGAGUUCUACAGUCCGACGAUC … CAACAGAGGAUUGAGCAUCA
Oligonucleotide,bound/input enrichment
GAGCCCAGCCGGCAGUUUGUAAAGGACUCCAUUCGGCUGGUUAAAAGAUGCACCAAACCCGACAGAAAAGAAUUCCAGAAGAUUGCCAUGGCAACAGCUAUAGGAUUUGCUAUCAUGGGA,0.175 ratio
AACAGAUUGUCUUUAAGCAUUCCAAGCGAGAAUGCUGGGGUGAUCAUUGUUGCCCAUGUGCCUUCUGACUGAGCUUUAAUGCUGUUCCAUGUUACAUUGAUGUUCUUUUGCAUAUUUGUU,0.137 ratio
AACAGAUUGUCUUUAAGGUCAACGUAGGAGAAUGCUGGGGUGAUCAUAAUUACCCACGUGCCUUCUGACUGAGCUUUAAUGCUGUUCCAUGUUACAUCUUUCCUUCACUCCAGAAUUGUU,0.103 ratio
CGCUUGGAUGAGGCUGGUGUCACAGAUGAAGUGCUAGAUUCUGCCAUGCAAGCCUUCUUACUAGAAAUCAUUGUUAAACAUGGGGAGCCGGCACCUUAUUUAUGUAACAAAGAUCCGUUU,0.252 ratio
GAUAGGAAAAGCUUGUUGGAGACCCGCUUGCAUGUCACUGGUAGAGACCUGAGGUGUCAAAUAGCUGAAACUUUCGGAUUUCAAGAAAAUUACAUCAAGAUCGUAAUAAAUAAGAAGCAG,0.642 ratio
CUGAGGAUACCACUGAAGAGACCUUAAAAGGAGUCAUUGAGGGCUCUGUUCGUGCAAAGGAUAGUUAUGAUCGGGAAACUGGUUCUUCCAAAGGGUUUGGUUUUGUAGACUUUAAUAGUG,1.03 ratio
GGCCUGGGACCGUCCUGGGCUAGUACAAAUAGCGGCAGUGGAGGCUCAGAGGAAAGUUUUGUUAGUGGAGGCAGUGGUAGAGGCCGUCAUGUACGGUCUUUACACGAAUAGAUGUGUUCU,0.675 ratio
UGUGCAUAUGAUGCUUGGAGAUGGUUUUGCAAAAGCAGAAAUCGCUGCAAGGUAAUCCUAAUAGAGAAAAGUGGUAUUUUAAACCUUUGAAAUAAAUGGAUGUAACUGUACCUUGGUACA,1.01 ratio
AUGGAGAAGGAUUCUCUGCCCCGCUUUGUGCGCUCUGAGUUUUAUCAGGAGCUAAUCAAGUAGUCAUCUGGUCAGGCUAUGAAAUCAUGCCCUGUGAGUUGAGUUACAUCCUUUGUAGCA,0.323 ratio
GCUGAAAAUGAAGAAGAGGCAGCUGAUGUCUGGUACAACCUGGGGCACAUAGCUGUGGGAAUCGGAGAUACAAAUUUGGCCCACCAAUGCUUCAGGCUGGCCCUGGUCAACAACAACCAC,0.161 ratio
GCAGGAUCUUCUAAGUACCAGUGGGGCAUUAUGAAAUCCCUUGGGCUCUCUGAUGACGACAUAGUGAAGUUUUCUGAAGCAGAACAUUGGCUUGAUUAUUUCCCACCACUGGCCGUUCAG,0.239 ratio

# Block 2 — technique: universal PBM; form: double-stranded DNA, one strand shown; sample: in vitro; tested at: not given; reading: higher = stronger binding
# Target: Sal-like protein 4, full length isoform B (SALL4, Homo sapiens, UniProt Q9UJQ4-2, residues 1-616)
# Setting: 8-mer, flanks averaged, mean of replicates
Oligonucleotide,E-score
CATGGGCC,-0.288
CACAACGC,-0.0605
AGGTTTGA,-0.0497
AATGGGCA,0.0511
AGTTAATC,0.154
GGAACCGA,-0.24
CAGAGTAG,-0.133
GTCATGAA,0.0665
CGACGAGA,-0.0924
ACAGAATG,0.0459
AACTAACC,0.11
CCACCGGC,-0.396
CCAGTGAA,0.0118
ATGAGGCA,0.0102
CGCACGAG,-0.263
ACGAAACG,-0.0406

# Block 3 — technique: protein binding microarray; form: double-stranded DNA, one strand shown; sample: in vitro; tested at: not given; reference: not given; reading: higher = stronger binding
# Target: Histone acetyltransferase KAT6A, winged helix 2, GST fusion (KAT6A, Homo sapiens, UniProt Q92794, residues 85-181)
# Setting: 8-mer, flanks averaged, mean of 2 arrays, mostly near background
# Residues (chain): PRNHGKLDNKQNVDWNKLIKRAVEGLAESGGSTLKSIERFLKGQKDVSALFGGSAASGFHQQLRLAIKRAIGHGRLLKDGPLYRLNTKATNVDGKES
Oligonucleotide,E-score
GCCTGGAC,-0.0324
ATTGGAGG,-0.182
GAGGCGAC,-0.024
TGTCGAAA,-0.0206
AAGACTAC,-0.279
CCGTACCA,0.041
ACTATAAC,-0.196
ATTATGAA,-0.068
TCATGGAA,0.0184
AAGCCGGG,0.172
AGACATTA,-0.0661
ACGAGATG,-0.0362
ATAGCCAT,-0.0298
TCCTTCAA,-0.0803
CCTTCGGA,0.24
AGAACCGC,0.143
ATGAGACA,0.0139
AACTACAA,0.114
GTGATTTA,0.0472
ACTGGTAA,0.0553
GACATGGC,-0.0737
GCACCACC,0.171
AAGGTAAC,-0.0487
TCTCAGAA,0.0811
ATATGCAT,-0.0698

# Block 4 — technique: RNA Bind-n-Seq; form: RNA; sample: in vitro; tested at: 365 nM; reference: no-protein control; reading: higher = stronger binding
# Target: RNA binding protein fox-1 homolog 2, RRM domain, GST-SBP tag (RBFOX2, Homo sapiens, UniProt O43251-10, residues 100-194)
# Setting: natural RNA segment, single round, ends assumed
# Constant ends, left off below: GGGAGUUCUACAGUCCGACGAUC … UGGAAUUCUCGGGUGCCAA
# Target sequence (chain): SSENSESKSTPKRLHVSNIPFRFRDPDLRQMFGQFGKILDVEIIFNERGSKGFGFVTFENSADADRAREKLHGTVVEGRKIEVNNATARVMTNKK
Oligonucleotide,RBNS enrichment (R)
CUGUUGCUCUAGGAGGCUCCUGCUGGCUUGGUAGAAGACAGAAUUCGAUCUGCCUGUCCCUUUUUCCCCUGGGGUUUGACACACAGGCUCCUCUCAGCAUGAGGUGGAGC,1.85
AGACAGGGUUUCACCAUAUUAGCCAGGAUGGUCUCGAUCUCCUGACCUCGUGAUCCGCCCACCUCGGCCUCCCAAAGUGCUGGGAUUACAGGCGUGAGCCACCACGCCCA,0.199
UUUAUUUUGUUGGUUUACUUUGUGUUUUCUCCUUUUUGGGGGGUAUUCAGAGUGGGCCGGGCCCCUGGGCGAGACACAGCUACCUCUGUUGGCAUCUUUUUAAUACCAGG,0.301
UGGUACUUGCCUGUAGUGUUAAACCCUAUUUGUGCCAUUCUCAAGUCCUUUGAUGUGAAUUUUCAGUUUGGUACAGUUAGAAAUGACUCAUUGAUGCGGACAGGUAAGAA,0.593
AGUCCUCUGGUUAUAGUAUAUAAGAGCCUGAGGAGGUCUGGCAAGAUAGAUGGUGUAUUAUUUAUGGAUCAGGCUGCUGCAUACAAACCUUGCAUACUAUUAUGCAGCUU,0.762
AAAAAGUAUAUAUACAUAUCUUUUGAAGUGUUAAAAGGAAACUAGUACUUUAUAUUCUUUAUCAUAUCACUUUUUGUAAGUGUUGAAUAUAUUCCUGUUUAUUUUUCUAU,0.444
UAUUUAAAAAAAAGAAUCACCAAAUCUAUUUGAAAACAAGUCGAUUUGUAUUAUGCUGGAAUUUUUUGGGCUUUCAGAUUUCUCUUUUUAACCACAUUUCUGAAUGUAUA,0.67
UUAAUGGGUGAGGAUUGCUUUCUCCAUUAGAGCAUUAAGCUAUAACUAUCAACAUUGUAAACCAAAUUGCCUUAUUUUCCUUCCAAACUUCAUAUAUCUAUCAGGUAAUA,0.886
AGCCCCUCAGCAAGAAAGAAGAGUCAUUGCUGGUUCCCAGGGGCAGUCACAGAGGAUGAAAUACCACAUCAAGGCAGUGGGAACUUCCUGCGACUUCUCCUGGUCCUCCC,0.531
UGCAGCCGUAGCAGCAUCCAUCUCCAGCAAGUCUCCUGGCCUCUCCUCGUCUUCUUCAUCCUCAUCAUCCUCCACGUGCAGUGAUGUGGCAGCACAGACCCCUGGAGGCC,0.587
AGGGGAGAAAGAUAACUGCUAAAAUUCCCCUGUACCCCAUCCUUUCUUGUCCUUUCCCCUUCAGAUGGAGACUUCAUUAUGUUAAUGAACAAGAUAUGAAGAAAAUGGCA,0.456
CUGUGUACUUAUCUUCCCCAAGAGAAAAUGCUUCUUUUGAGCACACUGUACCUACCAUCUGCAUUGAGCAGAAAGACUUUUGUUUUACUGAAGACAAAAGAUGUUUUUAU,0.455

# Block 5 — technique: RNA Bind-n-Seq; form: RNA; sample: in vitro; tested at: 1 µM; setting: whole 134-nt RNA, ends assumed; added: 150 mM KCl; reference: input library; reading: higher = stronger binding
# Target: Ras GTPase-activating protein-binding protein 1, C-terminal RGG region (G3BP1, Homo sapiens, UniProt Q13283)
# UniProt Q13283, sequence (whole entry, looked up): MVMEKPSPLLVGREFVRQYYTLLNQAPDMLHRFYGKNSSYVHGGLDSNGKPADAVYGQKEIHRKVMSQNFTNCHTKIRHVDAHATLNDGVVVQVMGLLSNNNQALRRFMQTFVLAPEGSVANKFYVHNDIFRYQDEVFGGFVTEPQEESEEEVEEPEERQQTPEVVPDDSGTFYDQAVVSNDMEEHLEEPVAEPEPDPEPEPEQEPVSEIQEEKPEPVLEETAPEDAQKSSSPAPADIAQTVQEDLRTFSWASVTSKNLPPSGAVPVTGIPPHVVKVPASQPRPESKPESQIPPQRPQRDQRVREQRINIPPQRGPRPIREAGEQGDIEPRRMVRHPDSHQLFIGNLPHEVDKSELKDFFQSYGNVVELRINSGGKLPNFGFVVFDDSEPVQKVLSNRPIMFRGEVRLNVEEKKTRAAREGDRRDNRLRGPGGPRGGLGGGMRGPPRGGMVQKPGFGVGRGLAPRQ
# Constant ends, left off below: GGGAGUUCUACAGUCCGACGAUC … UGGAAUUCUCGGGUGUCAAGG
Oligonucleotide,log2 enrichment
UCAAGUCCUGUGCUACACAUCGUAUGUACCGAAUCGGAAAGGUUUUUUUGGAGGAAAGUAUUAUGUUACGCCGUUCGGAUCUGCACUUCC,-1.56
CACAGACAACACGCACCCACACAGACACAGAGGGAAGGGGUUGGGAUGGGGACAGGGUGCACAGCAGGGCGGGGUAGGACCCAAGCCCCU,-1.05
ACCAUGCAGGUGGGCAUCUUUGGGAAAAGGGGCAAGGGGGGGAUAGGGAGGGGGGUAACACUUUGGGAACAGGUGGUCCCAGGUCGUUUC,-0.954
AGUCCUGUGCUACACAUCGUAUGUACCGAAUCAAACCCCCAAAUUUUUAAAUUUAAAAAAGUAUUAUGUUACGCCGUUCGGAUCUGCACU,-0.987
UCAAGUCCUGUGCUACACAUCGUAUGUACCGAAUCGGGCCCGGCCCGGGGCCCGGAAAGUAUUAUGUUACGCCGUUCGGAUCUGCACUUC,-1.61
UCCUGUGCUACACAUCGUAUGUACCGAAUCGGGUUUUUUGGGUUUUUUGGUUUUUUGGGGAAAGUAUUAUGUUACGCCGUUCGGAUCUGC,-0.891
UCAUGUGGAUGAAGCAGAAAAAGAAGCUCAGAAGAAGCCAGCUGAAUCUCAAAAAAUAGAGCGUGAAGAUGCCCUGGCUUUUAAUUCAGC,-1.81
UAACUUUAGAGGAGGAUCUGAUGGAUAUGGCGGUGGACGUGGAUUUGGGGAUGGCUAUAAUGGGUAUGGAGGAGGACCUGGAGGUGGCAA,-1.65
GCAGGAAGUAAAAACAAAUGGAAAUGCUUCGGAUAGUGGCAGGGGUGGGAAAUGCUAAGGAAAGGGUGGGAUGGGAGUGGGUAAAGAGUU,1.37
UAGGAGGUGGAUUUUGUUUAUUUUUUUAGCUCAUUUCCAGGGGUGGGAAUUUUUUUUUAAUAUGUGUCAUGAAUAAAGUUGUUUUUGAAA,3.43
CACAGACAACACGCACCCACACAGACACAGAGGGAAGGGGUUGGGAUGGAGACAGGGUGCACAGCAGGGCGGGGUAGGACCCCAGCCCCU,-0.964
GUCCUGUGCUACACAUCGUAUGUACCGAAUCGGCCCCCGGGGCCCCCGGGCCCCCGGGAAAGUAUUAUGUUACGCCGUUCGGAUCUGCAC,-1.34
AGUCCUGUGCUACACAUCGUAUGUACCGAAUCGGCCCCCGGCCCCCGGGGCCCCCGGGAAAGUAUUAUGUUACGCCGUUCGGAUCUGCAC,-1.64
AAGUCCUGUGCUACACAUCGUAUGUACCGAAUCGGUUUGGAAAAAGGUUUUUUUGGAAAGUAUUAUGUUACGCCGUUCGGAUCUGCACUU,-2.12

# For quick reference, copied from above (block 3):
Oligonucleotide,E-score
GAGGCGAC,-0.024
ACTGGTAA,0.0553
TGTCGAAA,-0.0206
ATGAGACA,0.0139
AACTACAA,0.114
